Measurements of several laboratories.
Parts stem from different laboratories: compare values within a part only. Changes are numbered by the printed parent chain.

Sample 1 — technique: protein-binding microarray; form: double-stranded DNA, one strand shown; sample: in vitro; concentration: 0.8 µM; notes: whole 60-bp probe, no competitor; reading: higher = stronger binding; all sequences stand within: … GTCTTGATTCGCTTGACGCTGCTG
Target: Centromere-binding protein 1, full length, N-terminal tag (CBF1, Saccharomyces cerevisiae, UniProt P17106, residues 1-351)
UniProt P17106, sequence (whole entry, looked up): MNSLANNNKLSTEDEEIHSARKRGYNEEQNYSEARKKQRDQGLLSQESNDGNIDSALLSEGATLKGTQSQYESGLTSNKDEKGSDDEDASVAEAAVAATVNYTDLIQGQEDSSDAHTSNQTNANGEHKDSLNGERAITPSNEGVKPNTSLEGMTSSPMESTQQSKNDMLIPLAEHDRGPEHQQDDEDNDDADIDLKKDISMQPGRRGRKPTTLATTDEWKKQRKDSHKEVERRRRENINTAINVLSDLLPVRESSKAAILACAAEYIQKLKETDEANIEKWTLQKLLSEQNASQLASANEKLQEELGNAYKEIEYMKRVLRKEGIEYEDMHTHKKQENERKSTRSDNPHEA
The fluorescence intensity of `CTATTTTTTAACTGCACGTGCATCAAGGGGATCTTC` is reported as 12600 a.u.
`CTAGCATCGCATTACCTCATGATGAGTAAATAGTTC` gave a fluorescence intensity of 620 a.u.
With `CTAGTTGTCGTACCCCATGTGCCCTATTCTTTGTTC` the fluorescence intensity was 641 a.u.
`CTAATATATATAGAACACCACCCTTGGAAAACATTC` has a fluorescence intensity of 507 a.u.
`CTAGATTTTTGTGACGGTGACGTACGATCTCTATTC` gave a fluorescence intensity of 534 a.u.
The fluorescence intensity of `TGTACGAAGCTATACGTGATGGTTATAGTAGTTAGG` is reported as 603 a.u.
`GAAATGATAAAAAATGGTGTGAAATTATATGACTAG` has a fluorescence intensity of 525 a.u.
With `CTAGTGGCTCACACACATGTGGGCGCTATCCCCTTC` the fluorescence intensity was 530 a.u.
For `CTATCAGCTTTAGCAAGCGTGCATGCAAATAAGTTC`, the fluorescence intensity was 564 a.u.
With `CCTAACTACTATAATCATGCTGCATAGCTTCGTACA` the fluorescence intensity was 536 a.u.
`GAACTAGTCACGGAGCACGAGAGGTAAAGAATTTAG` gave a fluorescence intensity of 981 a.u.
`CTAACTTTAGAACACCACCAACAGATCGTTCTCTTC` has a fluorescence intensity of 519 a.u.
For `CCTAACTACTATAGCACCGTCACATAGCTTCGTACA`, the fluorescence intensity was 520 a.u.
With `CTAACATACCCACAATATGTGACTATTGGCAAATTC` the fluorescence intensity was 530 a.u.
`CTAGTATCGCATTATCACCACGCCTATATAACATTC` gave a fluorescence intensity of 566 a.u.
The fluorescence intensity of `CTATATGTTTTCACGTGAGTGGCTCGTTTCTCGTTC` is reported as 4860 a.u.
`CCTAACTACTATAGTCAGGAGGTATAGCTTCGTACA` gave a fluorescence intensity of 585 a.u.

Sample 2 — target: CEBPD, bZIP domain (human); technique: DHFR protein complementation; sample: yeast; baseline: wild-type JUN-FOS pair; reading: higher = stronger binding
Notes: single substitutions, most at no-binding floor
Starting sequence: JUN, bZIP domain (human); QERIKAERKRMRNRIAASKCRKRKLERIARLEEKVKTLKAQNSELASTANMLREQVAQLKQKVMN; partner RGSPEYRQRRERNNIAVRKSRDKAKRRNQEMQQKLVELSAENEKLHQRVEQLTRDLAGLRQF
For `L31Q`, the binding fitness was -1.37 natural log.
For `S43F`, the binding fitness was -1.23 natural log.
For `A49C`, the binding fitness was -1.29 natural log.
`V35T` has a binding fitness of -1.45 natural log.
The binding fitness of `L45M` is reported as -1.43 natural log.
The binding fitness of `R30T` is reported as -1.22 natural log.
With `L45G` the binding fitness was -1.48 natural log.
With `N42V` the binding fitness was -1.35 natural log.
`E32L` has a binding fitness of -1.46 natural log.
`A57K` gave a binding fitness of -1.44 natural log.
With `Q41C` the binding fitness was -1.48 natural log.
The binding fitness of `S47T` is reported as -1.27 natural log.
`L31S` gave a binding fitness of -1.49 natural log.
For `A29E`, the binding fitness was -1.31 natural log.
With `T48D` the binding fitness was -1.48 natural log.
`E32C` has a binding fitness of -1.42 natural log.
`E33N` has a binding fitness of -1.46 natural log.

Sample 3 — technique: RNA Bind-n-Seq; form: RNA; sample: in vitro; concentration: 365 nM; baseline: no-protein control; reading: higher = stronger binding
Target: RNA binding protein fox-1 homolog 2, RRM domain, GST-SBP tag (RBFOX2, Homo sapiens, UniProt O43251-10, residues 100-194)
Notes: natural RNA segment, single round, ends assumed
All sequences stand within: GGGAGUUCUACAGUCCGACGAUC … UGGAAUUCUCGGGUGCCAA
Target sequence (chain): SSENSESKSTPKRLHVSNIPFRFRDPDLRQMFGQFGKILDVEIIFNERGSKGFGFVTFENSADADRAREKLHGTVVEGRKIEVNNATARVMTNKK
`UUUUAUUGGUCAGAAAUAAAAUGUGACUGCAACUGUGUGCCCUCCCUUGUCGUGAAUUCCCUGUUUAUCACUUCCAUGCAUGGUUUUAUGCUUCUCAUUUGUUUAUGUAU` — result for “RBNS enrichment (R)”: 1.46.
Under “RBNS enrichment (R)”, `UGCCCUGCUGCUGCUGCCGCCCCGCUACAGAGGCAAUGUGACCAGUCACAGGGACAGAUCACAUCUCCCCAGAGUGGCAACUCUGGUGAAACCUUUUCAGAAUCAUGGCA` is recorded as 0.618.
`ACUCUGGGGGACUCUGUUUCAAGGGGAAAAAAAGAACAGAGUCUGACUGCUUGGCUACGUACAGUAUAAGUAUUUCCUUUCUGUGACAUUGUGACAUACAAUUUAAACAC` — result for “RBNS enrichment (R)”: 0.599.
`AGGGUUUGUCUGUCCUGAAAGUGACACCCACCAGCUCUGCGGGAGACUCUUGGUAGACAGACCUGUGGGGUAGCAGGCCUGGCAGGAGUGGGACAGCCCCUUGAAGCAUU` — result for “RBNS enrichment (R)”: 1.04.
Under “RBNS enrichment (R)”, `GGCUGGUGGCAAGUGCACGGGGCACAGCGGAGUCUGUCCUGUGACGCGCAAGUCUGAGGGUCUGGGCGGCGGGCGGCUGGGUCUGUGCAUUUCUGGUUGCACCGCGGCGC` is recorded as 0.674.
`GGAGGCCUUCCUGAAGAAGCUGAUUGGCUGACAAGCAGGGAUGAGUCCUGGUUCCCUUGCCCGCGUGGGACCCCAAUAGAACUCAGCCCUUCCAUGCCAGCCCUUCCUGC`: “RBNS enrichment (R)” 1.04.
Under “RBNS enrichment (R)”, `AACUGAAGCCAAAAAUGAAGCCGUGGCCAAGCGUGACCCAGAGAUGGGGUGUCCUGGCCCUUAGUGACACAGCUCCUCUCUGGGGCACCCUAUCUGCUUGUCUCGUCCAG` is recorded as 0.334.
For `AAACCAAGUCAACAGCCAUCAAGCAGAUAUAUCCCAGGCCGCCCAGGAUGUGUGUCCUCCCUUGUGGUGGGAGGCAUGAAUUCUGACCCCUGUGACUGUGCAGCCUGACC`, “RBNS enrichment (R)” read 0.383.
For `AUCCUGGUGGGUCUUGCCUGUGACAGCAGACCCUCCAAACCUAAGAGCCACCAGCACUUCAGAGCCAGCCCUCAGCCCGGGUGGCCUGGAGAGGGCCAGUGCUGCCACUG`, “RBNS enrichment (R)” read 0.965.
`AAGGAAACUUUUAUAUCUGUUGCCUAGUUUUGUACAUGGAUCUCAUUUUACAAGAGAAUCUCUCUGCAAAAAAAAAAAAAACAGUUUAAAAAUGCAUUGAAAGCAGAGUU`: “RBNS enrichment (R)” 0.431.
`GACUGGACAUCUUGGUCUUUUUCUCAGGUCUGAAAGGAACCAUUUUUUGGUAUGAUAAAGACCCCAAAAUGCCUUUUUUUUAAAGUGGGGAGAGGGAGGAGGUACGCCGG`: “RBNS enrichment (R)” 0.51.
Under “RBNS enrichment (R)”, `GAGUGGGGGGCAGCAAGAUGCCAUUUCUGCAUCUCCCAGAAGGGAUGAGUCUUUGUCCCGAUGCAAGCCCCCUCUUCGCUGGGCUCCCAGCAGUGCUUCCCUCCUCCACC` is recorded as 0.193.

Sample 4 — technique: DHFR PCA, deep sequencing; sample: yeast; with: (+)-ABA 0.39 µM; baseline: wild-type fitted maximum; reading: higher = stronger binding
Target: ABI1, truncated, D143A, DHFR fusion (Arabidopsis thaliana)
Notes: methotrexate growth selection, single substitutions
Starting sequence: PYL1, truncated, DHFR fusion (Arabidopsis thaliana); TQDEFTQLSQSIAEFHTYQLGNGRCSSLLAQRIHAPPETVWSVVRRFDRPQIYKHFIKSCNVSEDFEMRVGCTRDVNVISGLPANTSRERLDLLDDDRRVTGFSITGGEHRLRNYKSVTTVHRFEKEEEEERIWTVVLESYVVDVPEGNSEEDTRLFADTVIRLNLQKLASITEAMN
For `A175W`, “relative binding score” read 7.04%.
`G71I` — result for “relative binding score”: -13.7%.
`D65R`: “relative binding score” 12.6%.
`Q31D`: “relative binding score” -4.49%.
For `Q2T`, “relative binding score” read 38.2%.
`R69T` — result for “relative binding score”: 44.3%.
For `S117Y`, “relative binding score” read 7.14%.
For `H34Y`, “relative binding score” read 43%.
`E4S` — result for “relative binding score”: 18.8%.
`G23A`: “relative binding score” 8.96%.
Under “relative binding score”, `S171P` is recorded as 9.01%.
`D97A`: “relative binding score” 46.2%.
`I79K` — result for “relative binding score”: 11.8%.
`V43L`: “relative binding score” 28.8%.
`G71P` — result for “relative binding score”: 1.09%.
For `L166N`, “relative binding score” read -7.16%.
Under “relative binding score”, `E89P` is recorded as -9%.
`T135N`: “relative binding score” -25.9%.
For `I57Q`, “relative binding score” read -16.5%.
`R132A`: “relative binding score” 67.9%.
`L8C` — result for “relative binding score”: 16.1%.

Sample 5 — target: CCNF, cyclin fold, Cln2 fusion (human); technique: yeast growth competition, sequencing; sample: yeast; notes: strong parent motif; baseline: not given; reading: higher = stronger binding
Starting sequence: TICRR docking peptide (human); TKVRRNLFNQELL
`TKVRRNLFAQELL [N9A]`: “normalised enrichment score” 6.82.
For `TAVRRNLFNQELL [K2A]`, “normalised enrichment score” read 8.6.
`TKVRRNLFNAELL [Q10A]`: “normalised enrichment score” 5.59.
`TKVRRNLANQELL [F8A]`: “normalised enrichment score” 0.526.
`TKVRRNLLNQELL [F8L]`: “normalised enrichment score” 1.34.
`TKVRRNLFNQEAL [L12A]`: “normalised enrichment score” 5.9.
`TKVRKNLLNQELL [R5K F8L]`: “normalised enrichment score” 0.788.
For `TKVRRNAFNQELL [L7A]`, “normalised enrichment score” read 0.589.
For `TKVRANAFNQELL [R5A L7A]`, “normalised enrichment score” read 0.0589.
`TKVRANLFNQELL [R5A]`: “normalised enrichment score” 0.91.
